Assay results collected from several papers.
Protocols differ between the studies behind these lines. ± gives the spread as reported.

SMILES | tested on | test | system | conditions | scale | endpoint | value
CN[C@H](CC(C)C)C(=O)N[C@H]1C(=O)N[C@@H](CC(N)=O)C(=O)N[C@H]2C(=O)N[C@H]3C(=O)N[C@H](C(=O)N[C@H](C(=O)O)c4cc(O)cc(O)c4-c4cc3ccc4O)[C@H](O)c3ccc(c(Cl)c3)Oc3cc2cc(c3O[C@@H]2O[C@H](CO)[C@@H](O)[C@H](O)[C@H]2O[C@H]2C[C@](C)(N)[C@H](O)[C@H](C)O2)Oc2ccc(cc2Cl)[C@H]1O | – | starch gel membrane permeability | Gram-negative envelope surrogate | 200 µM, 60 min, pH 7.4 | – | amount permeated | 1.14 nmol
C[C@@]1(c2cc(NC(=O)c3ccc(C#N)cn3)ccc2F)C=CSC(N)=N1 | – | – | elderly humans, both sexes, plasma | oral, 150 mg single dose | – | dose-normalised Cmax | 6.04 ng/mL
Nc1nc2c(nc([N+](=O)[O-])n2[C@@H]2O[C@H](CO)[C@@H](O)[C@H]2O)c(=O)[nH]1 | – | depurination, RP-HPLC | citrate-phosphate buffer 0.5 mM | 1350 min, pH 5, 37 °C | – | nucleoside remaining fraction | 0.409
CC[C@H](C)[C@H](NC(=O)[C@H](Cc1ccccc1)NC(=O)[C@H](CC(=O)O)NC(=O)[C@H](CCCNC(=N)N)NC(=O)[C@H](C)NC(=O)[C@H](C)NC(=O)[C@H](CC(C)C)NC(=O)[C@H](CC(N)=O)NC(=O)[C@H](CC(=O)O)NC(=O)[C@H](CC(C)C)NC(=O)[C@@H](NC(=O)[C@@H](NC(=O)[C@H](CC(N)=O)NC(=O)[C@H](CCSC)NC(=O)[C@H](CCC(=O)O)NC(=O)[C@H](CC(=O)O)NC(=O)[C@H](CO)NC(=O)[C@H](Cc1ccccc1)NC(=O)[C@H](CO)NC(=O)CNC(=O)[C@H](CC(=O)O)NC(=O)CNC(=O)[C@@H](N)Cc1c[nH]cn1)[C@@H](C)O)[C@@H](C)CC)C(=O)N[C@@H](CC(N)=O)C(=O)N[C@@H](Cc1c[nH]c2ccccc12)C(=O)N[C@@H](CC(C)C)C(=O)N[C@H](C(=O)N[C@@H](CCC(N)=O)C(=O)N[C@H](C(=O)N[C@@H](CCCCN)C(=O)N[C@H](C(=O)N[C@H](C(=O)N[C@@H](CC(=O)O)C(=O)O)[C@@H](C)O)[C@@H](C)CC)[C@@H](C)O)[C@@H](C)CC | – | population PK sensitivity analysis | human | fixed allometric exponent | – | typical absorption rate constant | 0.331 h⁻¹
COc1ccc2c(c1)CN(C(=O)CCN1CCC(Cc3ccccc3)CC1)CC[S@@+]2[O-] | – | telemetry | conscious male beagle dogs | intravenous, NG, 1 h | – | PQ interval | 89 ± 5 ms
CC(C)(C(=O)N1CCOc2c(C#N)cncc2C1)C(F)F | – | item: Palpitations | human | oral, 20 mg twice daily, 14 days, multiple ascending dose | – | subjects with adverse event | 0%
O=C(O)c1cc(O)c2c(c1)C(=O)c1cccc(O[C@@H]3O[C@H](CO)[C@@H](O)[C@H](O)[C@H]3O)c1C2=O | HepaRG co-cultured with HK-2 | MTT | – | 33.33 µM, 48 h | reference: untreated control | cell viability | 71.8 ± 9.93%
[18F]c1ccc(-c2ccc3c(c2)[nH]c2ccncc23)cn1 | – | ex vivo biodistribution | B6SJL mouse, normal, bladder | intravenous, 30 min | – | SUV | 2.53 ± 2.64
O=C(O)Cc1ccc(O)c(O)c1 | – | – | human plasma | mean | – | plasma concentration | 1.44 µM
CCc1cc(C(=O)NC)c2nccc(N3CCc4c(cc(Cn5ccnc5)cc4-c4cn(C)nc4C(F)(F)F)C3=O)c2c1 | – | – | Sprague Dawley rats | oral, 50 mg/kg once daily, 7 days | reference: vehicle | serum PLT change | 7.35%
O=c1oc2cc(O)ccc2c2cc(O)ccc12 | – | – | human plasma | median | – | plasma concentration | 1 µM
Cc1cc(Nc2ccc(S(F)(F)(F)(F)F)cc2)n2nc(C(C)(F)F)nc2n1 | Plasmodium vivax | – | human Plasmodium vivax malaria patients | oral, 600 mg | – | patients with blood or lymphatic AEs | 0%
CCN(CC)Cc1cc(Nc2ccnc3cc(Cl)ccc23)ccc1O | COS-7 | – | – | 30 µM, 24 h, 0.1% DMSO, unit not given | reference: vehicle control | necrotic cells | 0.35 ± 0.07
C[C@@H]1COCCN1c1cc(C2([S@](C)(=N)=O)CC2)nc(-c2cc[nH]c3nccc2-3)n1 | – | – | Japanese advanced solid tumour patients | oral, 240 mg twice daily, CTCAE grade ≥3 | – | Diarrhea incidence | 0%
O=C(N[C@H](Cc1c[nH]c2ccccc12)C(=O)Nc1ccncc1)c1ccc(-c2ccc(F)c(Cl)c2)cc1F | – | – | Swiss Webster mouse, female, heart | oral, 50 mg/kg, 2 h, 20% HPβCD vehicle | – | concentration | 4.08 µM
N#Cc1ccc2c(c1)[C@H]1CCCN(C(=O)c3ccc4[nH]cnc4c3)[C@H]1C2 | – | – | human, plasma | 20 mg once daily, day 14 | – | pre-dose plasma concentration | 474 nmol/L
O=C(O)c1ccc(O)cc1 | – | – | human plasma | mean, both sexes | – | plasma concentration | 1.11 µM
CCCCCCCC(=O)c1c(O)cc(O)cc1CC(=O)OCC | COS-7 | WST-8 | – | 10 µM, 24 h, 0.1% DMSO, unit not given | reference: vehicle control | metabolic activity | 1.13 ± 0.03
COc1cc2c(c(OC)c1OC)C(=O)c1c(cc(C)c(O)c1OC)C2=O | HepaRG co-cultured with HK-2 | MTT | – | 266.67 µM, 24 h | reference: untreated control | cell viability | 38.9 ± 7.66%
N#Cc1ccc2c(c1)[C@H]1CCCN(C(=O)c3ccc4[nH]cnc4c3)[C@H]1C2 | – | – | human, male | 20 mg, day 7 | – | androstenedione level | 7.2 nmol/L
COc1ccc2[nH]c([S+]([O-])Cc3ncc(C)c(OC)c3C)nc2c1 (stereo not drawn) | – | – | human male, dried plasma spots | oral, dose not given, 4 h, added: fluvoxamine and voriconazole | – | R/S enantiomer ratio | 1.1
CN1C(=O)[C@@H](NC(=O)c2nnc(Cc3ccccc3)[nH]2)COc2cccnc21 | – | phase I multiple ascending dose | human, male and female | oral, 600 mg, 14 days | – | participants with any serious TEAE | 0%
CO[C@@H]1[C@@H](OC(N)=O)[C@@H](O)[C@H](Oc2ccc3c(O)c(NC(=O)c4ccc(O)c(CC=C(C)C)c4)c(=O)oc3c2C)OC1(C)C | – | starch gel membrane permeability | Gram-negative envelope surrogate | 200 µM, 20 min, pH 7.4 | – | amount permeated | 0.76 nmol
C[C@@H](NC(=O)N1C(=O)[C@H](Cc2ccnc(N)c2)[C@H]1C(=O)O)C1CCCCC1 | – | UPLC-MS/MS | healthy adult Chinese volunteers, plasma | continuous intravenous infusion, 0.3 mg/kg/h, day 6 of 5-day infusion, mean | – | t1/2 | 1.3 h

Repeated from above:
SMILES | tested on | test | system | conditions | scale | endpoint | value
N#Cc1ccc2c(c1)[C@H]1CCCN(C(=O)c3ccc4[nH]cnc4c3)[C@H]1C2 | – | – | human, plasma | 20 mg once daily, day 14 | – | pre-dose plasma concentration | 474 nmol/L
O=C(O)c1cc(O)c2c(c1)C(=O)c1cccc(O[C@@H]3O[C@H](CO)[C@@H](O)[C@H](O)[C@H]3O)c1C2=O | HepaRG co-cultured with HK-2 | MTT | – | 33.33 µM, 48 h | reference: untreated control | cell viability | 71.8 ± 9.93%
N#Cc1ccc2c(c1)[C@H]1CCCN(C(=O)c3ccc4[nH]cnc4c3)[C@H]1C2 | – | – | human, male | 20 mg, day 7 | – | androstenedione level | 7.2 nmol/L
